{"data": "Experimental data pooled from the literature", "note": "Lines come from different studies, so protocols differ. “And” joins repeats or separate records; there may be more than shown. ± gives the spread as reported.", "UniProt Q15349, sequence (whole entry, looked up)": "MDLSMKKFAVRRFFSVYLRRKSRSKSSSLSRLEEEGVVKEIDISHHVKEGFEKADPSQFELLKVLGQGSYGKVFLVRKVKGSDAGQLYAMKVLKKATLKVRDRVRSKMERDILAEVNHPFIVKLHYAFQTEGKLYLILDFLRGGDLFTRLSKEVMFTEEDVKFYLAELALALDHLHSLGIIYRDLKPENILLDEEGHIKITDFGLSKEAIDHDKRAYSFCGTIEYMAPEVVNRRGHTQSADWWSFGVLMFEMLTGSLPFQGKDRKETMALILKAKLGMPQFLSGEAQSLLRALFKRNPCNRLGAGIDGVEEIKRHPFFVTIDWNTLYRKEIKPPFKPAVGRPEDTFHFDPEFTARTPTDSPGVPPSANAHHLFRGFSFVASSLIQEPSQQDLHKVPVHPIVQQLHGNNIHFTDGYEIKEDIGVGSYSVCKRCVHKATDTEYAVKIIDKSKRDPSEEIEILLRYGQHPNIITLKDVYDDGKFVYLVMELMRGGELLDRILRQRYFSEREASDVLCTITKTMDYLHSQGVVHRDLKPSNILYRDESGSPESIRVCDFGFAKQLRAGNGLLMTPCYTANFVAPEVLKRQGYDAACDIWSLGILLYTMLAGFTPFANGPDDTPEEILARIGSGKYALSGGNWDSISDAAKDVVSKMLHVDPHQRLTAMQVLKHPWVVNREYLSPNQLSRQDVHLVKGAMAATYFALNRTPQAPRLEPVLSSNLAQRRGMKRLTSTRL", "UniProt P68400, sequence (whole entry, looked up)": "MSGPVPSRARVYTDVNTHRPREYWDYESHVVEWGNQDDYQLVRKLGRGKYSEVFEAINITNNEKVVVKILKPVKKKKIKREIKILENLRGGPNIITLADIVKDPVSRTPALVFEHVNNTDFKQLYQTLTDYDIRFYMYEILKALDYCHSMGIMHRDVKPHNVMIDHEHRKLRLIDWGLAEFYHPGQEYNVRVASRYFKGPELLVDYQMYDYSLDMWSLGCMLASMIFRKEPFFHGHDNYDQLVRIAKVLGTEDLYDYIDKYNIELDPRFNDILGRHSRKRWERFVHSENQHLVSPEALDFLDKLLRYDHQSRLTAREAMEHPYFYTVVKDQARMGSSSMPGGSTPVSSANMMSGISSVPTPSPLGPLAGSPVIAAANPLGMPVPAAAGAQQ", "UniProt P34981, sequence (whole entry, looked up)": "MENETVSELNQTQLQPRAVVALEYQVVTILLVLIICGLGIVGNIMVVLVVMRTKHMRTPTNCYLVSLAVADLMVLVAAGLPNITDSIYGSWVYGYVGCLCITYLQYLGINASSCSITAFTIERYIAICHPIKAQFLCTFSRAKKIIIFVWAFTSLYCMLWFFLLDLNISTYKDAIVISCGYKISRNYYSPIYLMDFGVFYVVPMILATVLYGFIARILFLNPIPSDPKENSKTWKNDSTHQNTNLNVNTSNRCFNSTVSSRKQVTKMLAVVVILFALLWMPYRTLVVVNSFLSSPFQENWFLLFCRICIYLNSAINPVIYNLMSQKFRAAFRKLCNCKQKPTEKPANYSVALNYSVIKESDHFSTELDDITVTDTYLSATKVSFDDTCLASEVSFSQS", "UniProt Q12851, sequence (whole entry, looked up)": "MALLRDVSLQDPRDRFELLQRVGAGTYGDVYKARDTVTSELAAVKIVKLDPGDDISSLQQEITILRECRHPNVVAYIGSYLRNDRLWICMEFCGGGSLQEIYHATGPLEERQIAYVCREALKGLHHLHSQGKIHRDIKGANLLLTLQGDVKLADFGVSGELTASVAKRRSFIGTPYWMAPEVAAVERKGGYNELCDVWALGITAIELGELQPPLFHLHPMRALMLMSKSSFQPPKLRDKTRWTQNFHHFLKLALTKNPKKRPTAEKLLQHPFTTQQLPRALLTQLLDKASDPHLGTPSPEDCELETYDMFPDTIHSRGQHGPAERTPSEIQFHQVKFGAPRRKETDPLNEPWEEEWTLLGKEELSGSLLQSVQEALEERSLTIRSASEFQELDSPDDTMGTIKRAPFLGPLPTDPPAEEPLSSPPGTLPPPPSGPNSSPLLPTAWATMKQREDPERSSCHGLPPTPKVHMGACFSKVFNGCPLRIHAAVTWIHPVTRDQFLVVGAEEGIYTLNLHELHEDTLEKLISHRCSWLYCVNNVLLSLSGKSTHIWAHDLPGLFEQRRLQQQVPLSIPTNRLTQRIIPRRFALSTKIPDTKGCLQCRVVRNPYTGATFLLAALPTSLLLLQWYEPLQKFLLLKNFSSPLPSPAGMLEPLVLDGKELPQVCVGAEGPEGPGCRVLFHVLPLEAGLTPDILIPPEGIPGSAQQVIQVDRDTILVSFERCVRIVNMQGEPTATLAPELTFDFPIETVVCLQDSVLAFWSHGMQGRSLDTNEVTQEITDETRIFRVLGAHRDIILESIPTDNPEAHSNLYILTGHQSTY"}
{"Compound": "Cc1nc2cccc(OCC(C)(C)C(=O)NC(C)C)c2c(N)c1C(=O)[O-].[Na+]", "tested on": "Salmonella typhimurium", "test system": "TA100", "setting": "0.32 mg per plate, without S9, plate incorporation", "endpoint": "revertant colonies per plate", "result": "149 ± 7"}
{"Compound": "CC(C)[C@H]1NC(=O)C[C@H]2/C=C/CCSSC[C@@H](NC1=O)C(=O)N[C@H](Cc1cccc3ccccc13)C(=O)NCC(=O)O2", "tested on": "Casein kinase II subunit alpha, with CK2 beta (CSNK2A1, Homo sapiens, UniProt P68400)", "setting": "10 µM", "endpoint": "inhibition", "result": "-5.4%"}
{"Compound": "CN[C@@H]1[C@H](O)[C@H](NC)[C@H]2O[C@]3(O)[C@H](O[C@@H]2[C@H]1O)O[C@H](C)C[C@H]3NC(=O)Cc1cscn1", "tested on": "Mycobacteroides abscessus", "test": "microbial growth", "test system": "ATCC19977", "endpoint": "MIC", "result": "50 µg/mL"}
{"Compound": "Cc1cc(C(=O)Nc2nc3cccc(C)c3n2[C@H]2CCCCN(C(=O)/C=C/CN(C)C)C2)ccn1", "tested on": "Trypanosoma brucei", "test": "cell growth, Alamar Blue", "test system": "2T1 overexpressing Tb927.10.5140", "how to read": "relative to: parental 2T1", "endpoint": "EC50 fold shift", "result": "0.47 fold and 0.71 fold"}
{"Compound": "NCCO.O=C(O)C(Cl)Cl", "tested on": "Eleusine indica", "setting": "15 mg/mL, 21 days, post-emergence, greenhouse", "endpoint": "herbicidal inhibition", "result": "0%"}
{"Compound": "CCN(CC)Cc1cc(Nc2c(C3CCCC3)c(C)nc3cc(Cl)ccc23)ccc1O", "tested on": "West Nile virus", "test": "viral replication, Rluc reporter replicon", "test system": "Vero WNV replicon cells", "setting": "50 µM, 24 h", "endpoint": "inhibition", "result": "99.8 ± 0.01%"}
{"Compound": "Cc1cc(Oc2nc(N3CC[C@@H](c4ccncc4)C3)ncc2F)[nH]n1", "tested on": "Mycobacterium tuberculosis", "test system": "THP-1, H37Rv non-replicating", "setting": "0.00949 µM, day 4", "endpoint": "normalised growth", "result": "5.66% and 9.43%"}
{"Compound": "N=C(N)NCCC[C@@H]1NC(=O)[C@H](CCCCNC(=O)CCC(NC(=S)Nc2ccc(CC3CN(CC(=O)O)CCN(CC(=O)O)CCN(CC(=O)O)CCN3CC(=O)O)cc2)C(=O)NCCCC[C@@H]2NC(=O)[C@@H](Cc3ccc(O)cc3)NC(=O)[C@H](CC(=O)O)NC(=O)CNC(=O)[C@H](CCCNC(=N)N)NC2=O)NC(=O)[C@@H](Cc2ccc(O)cc2)NC(=O)[C@H](CC(=O)O)NC(=O)CNC1=O (stereo partly shown) [scandium-44 labelled]", "test": "ex vivo γ-counting", "test system": "female athymic nude mice, U-87 MG xenograft, stomach", "setting": "intravenous, 4 h, with: cRGD 50 mg/kg blocking", "endpoint": "tissue uptake", "result": "0.042 ± 0.01 %ID/g"}
{"Compound": "C[n+]1ccc(Nc2ccc(O)cc2)c2ccc(Cl)cc21.[I-]", "tested on": "West Nile virus", "test": "viral replication, Rluc reporter replicon", "test system": "Vero WNV replicon cells", "setting": "50 µM, 24 h", "endpoint": "inhibition", "result": "84.5 ± 5.4%"}
{"Compound": "CN(C)[C@H]1C[C@@]23CC[C@@]4(O2)C(=CC[C@]2(C)[C@@H](c5ccc6ccncc6c5)CC[C@H]24)C=C3[C@@H](O)[C@@H]1O", "tested on": "Mitogen-activated protein kinase kinase kinase kinase 2 (MAP4K2, Homo sapiens, UniProt Q12851)", "test": "ATP probe labelling, inhibitor, KiNativ profiling", "setting": "1 µM", "endpoint": "inhibition", "result": "3%"}
{"Compound": "CC1CCC2C(C)C(CCCOC(=O)C(Cc3ccc(N(CCCl)CCCl)cc3)NC(=O)OC(C)(C)C)OC3OC4(C)CCC1C32OO4 (stereo not shown)", "tested on": "PC-3 (p53 null)", "test": "cell growth, CCK-8", "setting": "48 h", "endpoint": "IC50", "result": "> 50 µM"}
{"Compound": "COc1ccccc1-c1n[nH]c2nc(NC3CCN(C(=O)Cc4ccc(F)cc4F)CC3)ncc12", "test": "bead binding, competition bead pull-down, measured: LINJ.25.1160", "test system": "Leishmania donovani axenic amastigote extract", "setting": "10 µM", "how to read": "relative to: vehicle", "endpoint": "relative abundance", "result": 1.4}
{"Compound": "CC(C)CC(C(=O)N1CC2(CC1C#N)C(=O)Nc1ccccc12)N(C)C(=O)c1cc2c(F)cc(F)c(F)c2[nH]1 (stereo not shown)", "tested on": "Human coronavirus 229E", "test": "cytopathic effect", "test system": "MRC5", "setting": "99.5 nM", "endpoint": "inhibition", "result": "109%"}
{"Compound": "CC(C)[C@@H]1NC(=O)[C@@H]2CCCN2C(=O)[C@@H](C(C)C)NC(=O)[C@H]2CCCN2C(=O)[C@H](C(C)C)NC(=O)[C@@H]2CCCN2C(=O)[C@@H](C(C)C)NC(=O)[C@H]2CCCN2C(=O)[C@H](C(C)C)NC(=O)[C@@H]2CCCN2C(=O)[C@@H](C(C)C)NC(=O)[C@H]2CCCN2C1=O", "test system": "sheep lipid bilayer", "setting": "10 µM, pH 7.4, 23 °C, with: 0.1 M K+ vs NH4 chloride", "endpoint": "bi-ionic potential", "result": "-39 mV"}
{"Compound": "CS(C)(=O)=Nc1ccc(-c2ccc(-c3nc4cc(O[C@@H]5CO[C@H]6[C@@H]5OC[C@H]6O)[nH]c4cc3F)cc2)cc1", "tested on": "Receptor-type tyrosine-protein kinase FLT3 (FLT3, Homo sapiens, UniProt P36888)", "test": "enzyme activity, inhibitor", "setting": "10 µM", "endpoint": "inhibition", "result": "-12%"}
{"Compound": "COc1ccccc1-c1n[nH]c2nc(N[C@H]3CC[C@H](NS(=O)(=O)CC(C)C)CC3)ncc12", "test": "bead binding, competition bead pull-down, measured: LMJF.07.0340", "test system": "Leishmania donovani extract", "setting": "10 µM", "how to read": "relative to: vehicle", "endpoint": "relative abundance", "result": 0.93}
{"Compound": "CC(C)[C@@H]1NC(=O)[C@H](C)NC(=O)[C@H](Cc2ccc(O)cc2)NC(=O)[C@H](CC(=O)O)NC(=O)[C@@H](NC(=O)[C@H](CCCCN)NC(=O)[C@H](CC(=O)O)NC(=O)[C@H](Cc2c[nH]cn2)NC(=O)[C@@H](NC(=O)[C@H](Cc2ccccc2)NC(=O)[C@@H](N)Cc2ccccc2)C(C)C)CCSSCC[C@@H](C(=O)N[C@@H](CCCCN)C(=O)NCC(=O)N[C@@H](CO)C(=O)N[C@@H](CCCCNC(=O)CCCC[C@@H]2SC[C@@H]3NC(=O)N[C@@H]32)C(N)=O)NC(=O)[C@H](CCC(N)=O)NC(=O)[C@H](Cc2c[nH]cn2)NC1=O", "tested on": "anti-HA antibody 12CA5, mouse", "test": "biolayer interferometry", "setting": "30 °C", "endpoint": "kon", "result": "23000 M⁻¹ s⁻¹"}
{"Compound": "CN1C(=O)C(C2C3=C(CC(C)(C)CC3=O)Oc3ccc([N+](=O)[O-])cc32)C(=O)N(C)C1=O (stereo not shown)", "tested on": "3T3-L1 preadipocytes", "test": "adipogenesis, Oil Red O staining", "setting": "IC20, 14 days, single replicate", "endpoint": "lipid content", "result": "0.647 OD492"}
{"Compound": "O=C(O)c1ccc(-c2nc(-c3ccccc3Cl)c3sccn23)cc1", "test": "histology", "test system": "mouse", "setting": "dose not given, day 10, with: 5-fluorouracil", "endpoint": "bone marrow cellularity", "result": "95% and 90%"}
{"Compound": "O=C1NC2(CC2)COc2ncc(F)cc2[C@H]2COCCN2c2ccn3ncc1c3n2", "test system": "Sprague-Dawley rat, male, serum", "setting": "oral, 2.5 mg/kg/day, end of recovery, 4-week subacute toxicity", "endpoint": "serum hepatic lipase activity", "result": "3.5 ± 0.2 U/L"}
{"Compound": "CCCCCCCCCCCC(=O)C(C)C(=O)N1CCC[C@H]1C(=O)NC(C)(C)C(=O)NC(C)(C)C(=O)NC(C)(C)C(=O)N[C@](C)(CC)C(=O)NCCC(=O)N[C@@H](C)C(=O)N[C@](C)(CC)C(=O)N[C@@H](C)C(=O)N[C@@H](CC(C)C)C(=O)N[C@](C)(CC)C(=O)NCCC(=O)N[C@@H](C)C(=O)N[C@](C)(CC)C(=O)NCCC(=O)N[C@@H](C)C(=O)NC(C)(C)C(=O)NC(C)(C)C(=O)NC(C)(C)C(=O)N[C@@H](C)C(=O)N[C@@H](CC(=O)O)C(=O)O (stereo partly shown)", "tested on": "β-1,3-glucan", "test": "pull-down, LC-MS", "setting": "1 h, pH 7.0, 30 °C, with: β-glucan 1 mg/mL", "how to read": "higher = more bound", "endpoint": "bound compound (MS peak area)", "result": "1310 a.u."}
{"Compound": "Nc1ncc(-c2cc(-c3cnn(CC(F)(F)F)c3)ncc2F)nc1C(=O)NC1CNCC(F)C1 (stereo not shown)", "tested on": "FLT3 ITD D835V", "test": "KINOMEscan", "setting": "1 µM", "endpoint": "remaining binding", "result": "34%"}
{"Compound": "CC[C@@H]1CN2CCc3c([nH]c4cccc(OC)c34)[C@@H]2C[C@@H]1/C(=C\\OC)C(=O)OC", "tested on": "rabbit anti-mitragynine polyclonal IgG", "test": "antigen binding, competitor, competitive indirect ELISA", "test system": "5% methanol", "setting": "90 min antibody-standard, 60 min antibody-antigen incubation", "endpoint": "IC50", "result": "1.01 µg/mL and 0.99 µg/mL"}
{"Compound": "N[C@H](C(=O)N1CCCC1)C1CCN(c2nccc3c(-c4ncc(Cl)cc4Cl)cccc23)CC1", "tested on": "Thyrotropin-releasing hormone receptor (TRHR, Homo sapiens, UniProt P34981)", "test": "functional response, agonist", "setting": "10 µM", "endpoint": "response", "result": "4%"}
{"Compound": "O=C1NC(=O)c2c1c1cc(F)c[n+]3c1c1c2c2cc(O)ccc2[n]1[Ru-4]312([N]=C=S)[S+]3CC[S+]1CC[S+]2CC3 (stereo not shown)", "tested on": "Ribosomal protein S6 kinase alpha-2 (RPS6KA2, Homo sapiens, UniProt Q15349)", "test": "enzyme activity", "setting": "100 nM, human enzyme, with: 10 µM ATP", "how to read": "relative to: untreated", "endpoint": "remaining activity", "result": "5%"}
{"Compound": "CN1C(=O)C(C2C3=C(CCCC3=O)Oc3ccc(Br)cc32)C(=O)N(C)C1=O (stereo not shown)", "tested on": "3T3-L1 preadipocytes", "test": "adipogenesis, Oil Red O staining", "setting": "IC20, 14 days, single replicate", "endpoint": "lipid content", "result": "0.917 OD492"}
{"Compound": "CC(C)(C)C(=O)OCOP(=O)(OCOC(=O)C(C)(C)C)C1CCCN(O)C1=O (stereo not shown)", "tested on": "CAKI-1", "endpoint": "TGI", "result": "> 100 µM"}
{"Compound": "CC[C@H](C)[C@H](NC(=O)[C@H](CO)NC(=O)[C@H](Cc1ccc(O)cc1)NC(=O)[C@H](Cc1ccc(O)cc1)NC(=O)[C@H](CC(N)=O)NC(=O)CNC(=O)[C@H](CO)NC(=O)[C@H](Cc1ccc(O)cc1)NC(=O)[C@H](CO)NC(=O)[C@H](CO)NC(=O)[C@H](CC(N)=O)NC(=O)COCCOCCNC(=O)CN1CCN(CC(=O)O)CCN(CC(=O)O)CCN(CC(=O)O)CC1)C(=O)N[C@@H](CC(C)C)C(N)=O [copper-64 labelled]", "test": "dynamic PET", "test system": "KPC mouse Ptf1a-CreER tdTomato, metastases", "setting": "intravenous, 4.6 MBq/mouse, 0.4 min, 84 d after tamoxifen", "endpoint": "tissue uptake", "result": "8.81 %ID/mL"}
{"note": "For quick reference, copied from above:"}
{"Compound": "CC1CCC2C(C)C(CCCOC(=O)C(Cc3ccc(N(CCCl)CCCl)cc3)NC(=O)OC(C)(C)C)OC3OC4(C)CCC1C32OO4 (stereo not shown)", "tested on": "PC-3 (p53 null)", "test": "cell growth, CCK-8", "setting": "48 h", "endpoint": "IC50", "result": "> 50 µM"}
{"Compound": "COc1ccccc1-c1n[nH]c2nc(NC3CCN(C(=O)Cc4ccc(F)cc4F)CC3)ncc12", "test": "bead binding, competition bead pull-down, measured: LINJ.25.1160", "test system": "Leishmania donovani axenic amastigote extract", "setting": "10 µM", "how to read": "relative to: vehicle", "endpoint": "relative abundance", "result": 1.4}
